Experimental data from different studies.
Parts stem from different laboratories: compare values within a part only.

Series 1 — method: protein binding microarray; molecule type: double-stranded DNA, one strand shown; matrix: in vitro; concentration: not given; baseline: not given; reading: higher = stronger binding
Target: Histone acetyltransferase KAT6A, winged helix 2, GST fusion (KAT6A, Homo sapiens, UniProt Q92794, residues 85-181)
Setting: 8-mer, flanks averaged, mean of 2 arrays, mostly near background
Residues (chain): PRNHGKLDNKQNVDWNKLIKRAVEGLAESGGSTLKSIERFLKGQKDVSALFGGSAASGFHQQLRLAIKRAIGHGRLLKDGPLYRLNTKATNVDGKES
Sequence | E-score
AAACCTCG | -0.0155
CAGATGAA | -0.11
CAAAGGTC | -0.082
CTTTTCGC | 0.144
AAGCTAAA | 0.0964
AACTGGGG | 0.0612
GTAATGGA | 0.0577
AGCTCACT | -0.191
GATCGTTA | -0.223
CCAGCTCA | 0.111
GGCAATTA | -0.0289
ACACCTGC | 0.125
AAGGGCGT | 0.0814
CCGCACTC | 0.161
ACCGAATC | -0.0962
GAGCTCCA | 0.0371
CCAGGGTC | 0.0261
GAGCGGTA | -0.0607
ATCAAGAC | 0.0616
CCGTAGAC | -0.189
CCCGTAGA | -0.2
CCATCGCG | 0.213
ACAGAGTA | 0.113
GGGCCCCC | 0.161
CAAAATCA | 0.0569

Series 2 — method: RNA Bind-n-Seq; molecule type: RNA; matrix: in vitro; concentration: 200 nM; setting: whole 134-nt RNA, ends assumed; added: 150 mM KCl; baseline: input library; reading: higher = stronger binding
Target: Ras GTPase-activating protein-binding protein 1, full length (G3BP1, Homo sapiens, UniProt Q13283)
UniProt Q13283, sequence (whole entry, looked up): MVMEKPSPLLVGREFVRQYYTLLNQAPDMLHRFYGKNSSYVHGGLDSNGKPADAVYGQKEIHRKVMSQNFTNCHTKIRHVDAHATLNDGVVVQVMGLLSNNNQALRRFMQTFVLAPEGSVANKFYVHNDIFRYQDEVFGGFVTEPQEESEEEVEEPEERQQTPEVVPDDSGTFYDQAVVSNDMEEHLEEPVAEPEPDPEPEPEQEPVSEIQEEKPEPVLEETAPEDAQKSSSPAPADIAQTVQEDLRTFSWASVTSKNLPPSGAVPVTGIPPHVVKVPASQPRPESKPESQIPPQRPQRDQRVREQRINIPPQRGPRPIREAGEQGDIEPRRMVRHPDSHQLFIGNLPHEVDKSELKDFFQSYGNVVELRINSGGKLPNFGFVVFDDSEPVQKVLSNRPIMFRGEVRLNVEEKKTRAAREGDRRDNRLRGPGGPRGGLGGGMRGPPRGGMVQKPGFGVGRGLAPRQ
All sequences stand within: GGGAGUUCUACAGUCCGACGAUC … UGGAAUUCUCGGGUGUCAAGG
Sequence | log2 enrichment
ACCAUCCAGGUGGGCAUCUUUGGGAAGUGGGGCAAGGGGGGGAUAGGGAGGGGGGUAACACUUUGGGAACAGGUGGUCCCAGGUCGUUUC | 1.1
UCCUGUGCUACACAUCGUAUGUACCGAAUCGGGGAAAGGGGUUUUUUUGGGGUUUGGGGAAAGUAUUAUGUUACGCCGUUCGGAUCUGCA | 0.971
UCAAGUCCUGUGCUACACAUCGUAUGUACCGAAUCGGAAAGGGAAAGGGGAAAGGAAAGUAUUAUGUUACGCCGUUCGGAUCUGCACUUC | -0.802
UCAAGUCCUGUGCUACACAUCGUAUGUACCGAAUCGGAAAGGAAAGGAAAAAGGAAAGUAUUAUGUUACGCCGUUCGGAUCUGCACUUCC | -1.06
AAGUCCUGUGCUACACAUCGUAUGUACCGAAUCGGGCCCCGGGCCCCGGGCCCCGGGAAAGUAUUAUGUUACGCCGUUCGGAUCUGCACU | -1.81
CACAGACAACACGCACCCACACAGACACAGAGGGAAUGGGUUGGGAUGGGGACAGGGUGCACAGCAGGGCGGGGUAGGACCCCAGCCCCU | 2.02
UGCCCUCCGUGGAGUCUUUGUUUCGAAGUCCGAUAAAGGAAUCUCUAUUCCGGUCUUCUUCUAAAGAGUCUUUGGUACGAACAUCUUCCA | -1.19
AGUCCUGUGCUACACAUCGUAUGUACCGAAUCGGUUUUUGGGUUUUUGGUUUUUGGGGAAAGUAUUAUGUUACGCCGUUCGGAUCUGCAC | -1.01
UGGCCCUGGUGGCAUGCGGGGAGGAAGAGGUGGCCUCAUGGAUCGUGCUGGUCCCGGUGGAAUGUUCAGAGGUGGCCGUGGUGGAGACAG | 0.34
UAACUUUAGAGGAGGAUCUGAUGGAUAUGGCAGUGGACGUGGUUUUGGGGAUGGCUAUAAUGGGUAUGGAGGAGGACCUGGAGGUGGCAA | 0.18
AAGUCCUGUGCUACACAUCGUAUGUACCGAAUCGGAAAGGGGAAAGGGGAAAGGGGAAAGUAUUAUGUUACGCCGUUCGGAUCUGCACUU | -0.0289
UCCUGUGCUACACAUCGUAUGUACCGAAUCGGGGCCCCCGGGGCCCCCGGGCCCCCGGGAAAGUAUUAUGUUACGCCGUUCGGAUCUGCA | -0.493

Series 3 — method: protein-binding microarray; molecule type: double-stranded DNA, one strand shown; matrix: in vitro; concentration: 250 nM; setting: 60-bp whole probe; added: salmon DNA 0.4 mg/ml; baseline: random background probes; reading: higher = stronger binding; all sequences stand within: GCCTAGCAC … GTCTTGATTCGCTTGACGCTGCTG
Target: Interferon regulatory factor 7, full length, phosphomimetic (IRF7, Homo sapiens, UniProt Q92985, residues 1-503, S101K/S471D/S472D/S475D/S476D/S477D/S483D/S484D/S487D)
Target sequence (chain): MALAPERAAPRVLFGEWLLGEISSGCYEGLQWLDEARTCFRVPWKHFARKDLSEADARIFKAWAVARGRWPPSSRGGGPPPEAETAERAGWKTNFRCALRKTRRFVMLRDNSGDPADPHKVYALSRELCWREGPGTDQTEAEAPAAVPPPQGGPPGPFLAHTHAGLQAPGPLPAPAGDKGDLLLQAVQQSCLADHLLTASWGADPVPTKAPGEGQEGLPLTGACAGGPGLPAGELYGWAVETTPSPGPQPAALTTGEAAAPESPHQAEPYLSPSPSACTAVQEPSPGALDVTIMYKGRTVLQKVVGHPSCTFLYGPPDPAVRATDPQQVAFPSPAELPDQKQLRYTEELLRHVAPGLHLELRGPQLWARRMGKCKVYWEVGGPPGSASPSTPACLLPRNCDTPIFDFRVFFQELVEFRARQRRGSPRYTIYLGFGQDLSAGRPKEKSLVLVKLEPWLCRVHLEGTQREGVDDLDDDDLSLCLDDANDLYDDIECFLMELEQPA
Sequence | log fluorescence
TTAGGTATTCTTATCCTTTAGTGCTAG | 0.308 z-score
TTAGGTTTCGGGATCGGTTAGTGCTAG | 7.8 z-score
GACGGTATCCTTATCATGACGTGCTAG | -0.107 z-score
TTAGGCATCCTTCTCCTTTAGTGCTAG | -0.342 z-score
TTAGGACTGGACACTGGGTCAGTGCTA | -0.663 z-score
TACGATTTCAGACTGGAGACGTGCTAG | 0.265 z-score
GACGGTTTCGGTTTAGGGACGTGCTAG | 14.5 z-score
GACGATTTCGGGACCGGAGACGTGCTA | 0.0336 z-score
CATCATTGCTTTCTCTTTCAGTGCTAG | 0.894 z-score
ATTTTTTTCTAATTGAAATGGTGCTAG | 2.34 z-score
TTAGGTCTCAGTCTCGATTAGTGCTAG | 1.89 z-score
GCCGGTATCGGGTATCGGGACGTGCTA | 0.524 z-score
GACGGTATCTGTATCGGGACGTGCTAG | 0.208 z-score
TTAGGACTGGGTTTCGGTAAGTGCTAG | 1.94 z-score
GACGGTCTCGGTCACGGGACGTGCTAG | -0.135 z-score
CTCGTTTACATTTTCCAAATGTGCTAG | 2.2 z-score
TTAGATATCGACTTTCGGTTAGTGCTA | 1.75 z-score
GCTCTCTTCTGCTTCCTCAGGTGCTAG | 1.26 z-score
GACGGTATCCCTCTCCTGACGTGCTAG | -0.246 z-score
GACGAACTGAGTCTCAAGACGTGCTAG | -0.133 z-score
TTAGGTATCGGTTTTCGGTTAGTGCTA | 5.92 z-score
AGCTTTCCCAACATCAGAGCGTGCTAG | 3.13 z-score

Series 4 — method: competition protein-binding microarray; molecule type: double-stranded DNA, one strand shown; matrix: in vitro; concentration: 2 µM; added: Cbf1 competitor, 0.05 µM; reading: higher = stronger binding; all sequences stand within: … GTCTTGATTCGCTTGACGCTGCTG
Target: Phosphate system positive regulatory protein PHO4, full length, GST-tagged (PHO4, Saccharomyces cerevisiae, UniProt P07270, residues 1-312)
Setting: whole 60-bp probe, lowest competitor level
Target sequence (chain): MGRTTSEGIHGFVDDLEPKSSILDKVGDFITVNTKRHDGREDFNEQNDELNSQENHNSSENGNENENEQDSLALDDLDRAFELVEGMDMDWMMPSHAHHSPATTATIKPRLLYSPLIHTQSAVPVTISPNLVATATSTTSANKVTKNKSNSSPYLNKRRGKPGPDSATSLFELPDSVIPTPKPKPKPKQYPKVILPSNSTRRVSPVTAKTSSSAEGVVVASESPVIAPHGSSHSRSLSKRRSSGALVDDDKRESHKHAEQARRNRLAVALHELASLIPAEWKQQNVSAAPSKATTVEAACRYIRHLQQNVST
Sequence | fluorescence intensity
CTTGTCCTCAAATGCGGCGTGCAAAGTTCATAGCGG | 7960 a.u.
ACAAAATGGGTATTTCTCGTGATGGTCGTCCCAAAA | 4050 a.u.
TAAATAGTTTTTATATGTTTTTAGTAAAAGAAGAAA | 3600 a.u.
TGCGCAACAACTTGAGTCGTGGGTGTATGTCTAGAA | 7200 a.u.
TGAAATCGAGCCGGCCTCGTGAAAAGGTGTAAAAAA | 5820 a.u.
CGTCCTAGCGATTGAAACGTGGGTGCCATGAGGAAG | 13700 a.u.
TTGAGCTTGAAAGAGTGCGTGCAAATCATTCAATCA | 7300 a.u.
TAGCTCCGCTTTATTCACGTGAAATGGGGTCGAAAT | 9580 a.u.
CTTCCTCTTCGAACACACGTGCTTTACCCTTGAAGT | 19200 a.u.
GTCTTGTCTCATTGATCTGTGGGTGTCCCCACTTCA | 5090 a.u.
TGTGGCGATAAGTCCCACGTGAAGGTACAACTTCTC | 13300 a.u.
AAATTACTAAGTTGACAAGTGGGTGACGCCGTATGA | 4010 a.u.
TATCAGATCAGCCATCACGTGCCGAGTCGTTAGAAA | 14900 a.u.
CGAATAACTTTCAAACGCGTGCGATGTTTGTTACCA | 13200 a.u.
CATACCCAACCTTTTCACGTGCTGTAAGATATTTGT | 14200 a.u.
TAGTGCCTCGGAGATACCGTGATGGAATGGGATCGG | 3570 a.u.
CGGGGTTAAGTTTGTACAGTGGGTGGCTTGCAGCAG | 3980 a.u.
CGATTAGCTGAGGATCAGGCGGTACATTGCATACTC | 3150 a.u.
ATATAGACAAAAGTGGCCGTGACGGGTAAAAAGGAT | 4440 a.u.

Series 5 — method: universal PBM; molecule type: double-stranded DNA, one strand shown; matrix: in vitro; concentration: not given; reading: higher = stronger binding
Target: Sal-like protein 4, full length isoform B (SALL4, Homo sapiens, UniProt Q9UJQ4-2, residues 1-616)
Setting: 8-mer, flanks averaged, mean of replicates
Target sequence (chain): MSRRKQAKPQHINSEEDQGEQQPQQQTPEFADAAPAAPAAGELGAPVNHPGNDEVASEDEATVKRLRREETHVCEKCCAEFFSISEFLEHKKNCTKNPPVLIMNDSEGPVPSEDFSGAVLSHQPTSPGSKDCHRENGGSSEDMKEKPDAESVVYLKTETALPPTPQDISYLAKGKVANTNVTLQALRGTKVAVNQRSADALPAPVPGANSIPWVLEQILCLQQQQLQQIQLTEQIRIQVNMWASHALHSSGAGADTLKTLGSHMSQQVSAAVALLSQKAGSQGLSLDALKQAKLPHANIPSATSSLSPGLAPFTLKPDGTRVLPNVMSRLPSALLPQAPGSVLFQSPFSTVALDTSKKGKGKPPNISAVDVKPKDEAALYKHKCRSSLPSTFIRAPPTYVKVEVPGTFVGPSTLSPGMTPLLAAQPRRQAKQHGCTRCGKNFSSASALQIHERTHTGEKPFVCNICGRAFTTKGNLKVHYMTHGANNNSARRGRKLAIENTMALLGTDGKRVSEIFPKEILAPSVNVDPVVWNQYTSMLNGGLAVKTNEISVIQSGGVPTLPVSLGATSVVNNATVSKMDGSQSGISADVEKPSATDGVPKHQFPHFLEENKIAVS
Sequence | E-score
ACCAGTCA | -0.0902
ACTGTTGC | 0.0254
AACGTCGT | -0.102
CGTATCCC | -0.122
GTGATCCA | -0.112
CTGTTATC | 0.133
AATCGCTA | -0.0134
ACTCCAGT | 0.0408
GGGCGCAA | -0.22
CTACAATC | 0.179
AGAGGACA | -0.00339
ATTACCCA | 0.102
CACCACAA | 0.00116
ATCTCAGA | -0.0921
CCTGATCA | 0.0574
GCACGAGC | -0.29
ATTAGAAA | 0.226
CTCTGTGC | -0.194
CAACACGC | -0.039
GTCCCTGA | -0.0829
GAATAATA | 0.379
CCCCGGAG | -0.362

For quick reference, copied from above (series 3):
Sequence | log fluorescence
GACGGTATCCCTCTCCTGACGTGCTAG | -0.246 z-score
TTAGGACTGGGTTTCGGTAAGTGCTAG | 1.94 z-score
TTAGGTATCGGTTTTCGGTTAGTGCTA | 5.92 z-score
TTAGGACTGGACACTGGGTCAGTGCTA | -0.663 z-score
TACGATTTCAGACTGGAGACGTGCTAG | 0.265 z-score
GCCGGTATCGGGTATCGGGACGTGCTA | 0.524 z-score
CATCATTGCTTTCTCTTTCAGTGCTAG | 0.894 z-score
